Results of several laboratories.
Protocols differ between the studies behind these lines. Values joined by “and” are separate records of one study, mostly repeats; a detail may differ. Numbers after ± are the reported error. In brackets after ≈: the same amount, converted by molar mass.

Structure (SMILES) = CCOP(=S)(OCC)Oc1ccc([N+](=O)[O-])cc1; tested on = nanobody A4; assay = binding, ic-ELISA; setting = with: H1-OVA coating antigen; quantity = IC50; value = 0.055 µg/mL (≈ 0.189 µM)
Structure (SMILES) = CC[C@H](C)[C@H](NC(=O)[C@H](C)NC(=O)[C@H](CCCCN)NC(=O)[C@H](CC(C)C)NC(=O)[C@H](C)NC(=O)[C@@H](NC(=O)[C@H](Cc1c[nH]cn1)NC(=O)[C@H](CC(C)C)NC(=O)[C@@H](NC(=O)[C@@H](NC(=O)[C@H](CCCCN)NC(=O)[C@H](C)NC(=O)[C@H](C)NC(=O)[C@H](CO)NC(=O)[C@H](CCCCN)NC(=O)[C@H](Cc1ccccc1)NC(=O)[C@@H](NC(=O)[C@H](CCCCN)NC(=O)[C@H](CC(C)C)NC(=O)[C@H](Cc1ccccc1)NC(=O)[C@H](CO)NC(=O)[C@H](CCCCN)NC(=O)[C@H](Cc1c[nH]c2ccccc12)NC(=O)[C@H](CCCCN)NC(C)=O)[C@@H](C)O)[C@@H](C)O)C(C)C)[C@@H](C)O)C(=O)N[C@@H](CO)C(=O)N[C@@H](CO)C(N)=O; tested on = Enterococcus faecium; setting = 40 strains; quantity = MBC90; value = > 64 µg/mL
Structure (SMILES) = C=CCNCCc1c[nH]c2cccc(O)c12.C=CCNCCc1c[nH]c2cccc(O)c12.O=C(O)/C=C/C(=O)O; test system = C57BL/6J mice; setting = subcutaneous, 1 mg/kg, 30 min; quantity = distance travelled; value = 2660 ± 363 cm
Structure (SMILES) = CCC(CC)O[C@@H]1C=C(C(=O)O)C[C@H](N)[C@H]1NC(C)=O; tested on = influenza A virus A/PR/8/34 (H1N1); setting = concentration not given, post-treatment; quantity = HA titre reduction; value = 8 log units
Structure (SMILES) = CC(C)NCCc1c[nH]c2cccc(O)c12.O=C(O)/C=C/C(=O)O; test system = C57BL/6J mice; setting = subcutaneous, 10 mg/kg, 30 min; quantity = distance travelled; value = 1740 ± 331 cm
Structure (SMILES) = CCCCCCCCCCCCCCCCCC[N+](C)(C)Cc1ccc(C[N+](C)(C)CCCCCCCCCCCCCCCCCC)cc1.[Br-].[Br-]; tested on = influenza A virus A/PR/8/34 (H1N1); setting = concentration not given, co-treatment; quantity = HA titre reduction; value = 1 log units
Structure (SMILES) = CCCNCCc1c[nH]c2cccc(O)c12.CCCNCCc1c[nH]c2cccc(O)c12.O=C(O)/C=C/C(=O)O; test system = C57BL/6J mice; setting = subcutaneous, 10 mg/kg, 30 min; quantity = distance travelled; value = 2280 ± 189 cm
Structure (SMILES) = C[C@H]1O[C@@H](O[C@H]2CC[C@@]3(C)[C@@H](CC[C@]4(C)[C@@H]3C=C[C@]35OC[C@@]6(CCC(C)(C)C[C@H]63)[C@@H](O)C[C@]54C)[C@]2(C)CO)[C@H](O)[C@@H](O[C@@H]2O[C@H](CO)[C@@H](O)[C@H](O)[C@H]2O)[C@H]1O; test system = Mus musculus, chronic-plus-binge ethanol-fed, AAV8-TBG-Null vector, plasma; setting = oral, high dose, 5 h; quantity = ALT activity; value = 13.6 U/L and 19.4 U/L and 18.9 U/L and 27.1 U/L and 24.8 U/L and 24.6 U/L
Structure (SMILES) = CCCCCCCCCCCC[N+](C)(C)CCOCC[N+](C)(C)CCCCCCCCCCCC.[Br-].[Br-]; tested on = influenza A virus A/PR/8/34 (H1N1); setting = concentration not given, post-treatment; quantity = protection; value = 41.5 ± 6.6%
Structure (SMILES) = CCNCCc1c[nH]c2cccc(O)c12.CCNCCc1c[nH]c2cccc(O)c12.O=C(O)CCC(=O)O; test system = C57BL/6J mice; setting = subcutaneous, 30 mg/kg, 30 min session; quantity = distance travelled; value = 1040 ± 284 cm
Structure (SMILES) = CC(C)N(CCC(C(N)=O)(c1ccccc1)c1ccccn1)C(C)C (stereo not shown); tested on = human iPSC-derived cardiomyocytes; assay = MyBP-C/MYH ratio, plate-normalised SD score; setting = concentration not given, primary screen; how to read = direction not given; quantity = activity score; value = 3.5
Structure (SMILES) = COc1cc(CCC[P+](c2ccccc2)(c2ccccc2)c2ccccc2)c(OC)c2c1OCO2.[I-]; tested on = NCI-H23; assay = SRB; quantity = LC50; value = -4.32 log M
Structure (SMILES) = Clc1ccc(N/N=C(\c2ccccc2)c2ccccn2)nc1; test system = NOD/SCID mice, HER2+ LC tumour-derived cells; setting = dose not given; quantity = median survival; value = 47 to 51 days
Structure (SMILES) = CN1CCN(S(=O)(=O)c2cc([N+](=O)[O-])ccc2N(CCOS(C)(=O)=O)CCOS(C)(=O)=O)CC1; test system = NSG mice, sample CI PDX; setting = intraperitoneal, 25 mg/kg weekly x3; how to read = reference: treated over vehicle; quantity = EFS ratio (T/C); value = > 21.6
Structure (SMILES) = CC(C)N1CCC(NC2CCN(c3cccc(-c4cc5cc(F)ccc5[nH]4)c3)CC2)CC1; tested on = HCT-15; quantity = CC50; value = 5.06 µM
Structure (SMILES) = CC(C)n1ncc2c(C(=O)NCC3(C)CNC3)cc(C3CC3)nc21; tested on = enterovirus D68; test system = recombinant US/MO/14-18947 wild type; setting = 50000 nM; quantity = plaque reduction; value = 100%
Structure (SMILES) = O=C1c2c(O)c(=O)ccn2N([C@@H]2c3ccccc3SCc3c2ccc(F)c3F)[C@@H]2COCCN12; tested on = influenza A virus H1N1; test system = A/WSN/33, BALB/c mice, lung; setting = subcutaneous, 0.0625 mg/kg every 6 h, 24 h; quantity = lung virus titre; value = 4.23 log10 TCID50/mL and 3.67 log10 TCID50/mL and 4 log10 TCID50/mL
Structure (SMILES) = CN1C(=O)C(C2C3=C(CC(C)(C)CC3=O)Oc3c(O)cccc32)C(=O)N(C)C1=O (stereo not shown); tested on = 3T3-L1 pre-adipocytes; assay = cell viability, MTT; setting = 72 h; quantity = IC50; value = > 100 µg/mL
Structure (SMILES) = CC[C@H](C)[C@H](NC(=O)[C@@H](NC(=O)[C@H](CCCNC(=N)N)NC(=O)[C@H](C)NC(=O)[C@@H]1CC(=O)NCC(=O)N[C@@H]([C@@H](C)O)C(=O)N2CCC[C@H]2C(=O)NCC(=O)N[C@@H](Cc2ccccc2)C(=O)N[C@@H](CCC(N)=O)C(=O)N[C@@H]([C@@H](C)O)C(=O)N2CCC[C@H]2C(=O)N1)C(C)C)C(=O)N[C@@H](CO)C(=O)N[C@@H](CCCNC(=N)N)C(=O)N[C@@H](Cc1ccccc1)C(=O)NCC(=O)N[C@@H](Cc1ccccc1)C(=O)N[C@@H](CC(N)=O)C(=O)O; tested on = Pseudomonas aeruginosa RNA polymerase; assay = inhibitor; quantity = transcript elongation; value = inhibited
Structure (SMILES) = O=C(O)/C=C/C(=O)O.Oc1cccc2[nH]cc(CCNC3CCCCC3)c12; test system = C57BL/6J mice; setting = subcutaneous, 10 mg/kg, 30 min; quantity = distance travelled; value = 2620 ± 299 cm
Structure (SMILES) = CCCCCCCCCCCC[N+](C)(C)CCCCCCCCCC[N+](C)(C)CCCCCCCCCCCC.[Br-].[Br-]; tested on = influenza A virus A/PR/8/34 (H1N1); setting = concentration not given, post-treatment; quantity = HA titre reduction; value = 2.5 ± 0.5 log units
Structure (SMILES) = Nc1ncnc2c1ncn2[C@@H]1O[C@@H]2COP(=O)(O)O[C@H]3[C@@H](O)[C@H](n4cnc5c(=O)[nH]cnc54)O[C@@H]3COP(=O)(O)O[C@H]2[C@H]1O; tested on = HFF-1; assay = RNA sequencing Reactome analysis, item: Reactome R-HSA-6783783 interleukin-10 signaling; setting = with: West Nile virus infection; how to read = reference: West Nile virus infected cells, upregulated pathway; quantity = pathway fold enrichment; value = 10.2
Structure (SMILES) = CCCCNCCc1c[nH]c2cccc(O)c12.O=C(O)/C=C/C(=O)O; test system = C57BL/6J mice; setting = subcutaneous, 3 mg/kg; quantity = head twitch count; value = 7.3 ± 1.2
Structure (SMILES) = CCCCCCCCCCCC[N+](C)(C)CCCNCCC[N+](C)(C)CCCCCCCCCCCC.[Br-].[Br-]; tested on = influenza A virus A/PR/8/34 (H1N1); setting = concentration not given, post-treatment; quantity = HA titre reduction; value = 2 ± 1 log units
Structure (SMILES) = COc1c(CCC[P+](c2ccccc2)(c2ccccc2)c2ccccc2)cc2c(c1OC)OCO2.[I-]; tested on = HCT-15; assay = SRB; quantity = TGI; value = -4.15 log M
Structure (SMILES) = CC[C@H](C)[C@@H]1NC(=O)[C@@H]2CCCN2C(=O)[C@H](CC(C)C)NC(=O)[C@H](CC(C)C)NC(=O)CNC(=O)[C@@H](NC(=O)[C@@H](NC(=O)[C@H](CC(=O)O)NC(=O)CNC(=O)[C@@H](NC(=O)[C@H](C)NC(=O)CNC(=O)[C@H](CCCCN)NC(=O)[C@H](CC(C)C)NC(=O)[C@H](CC(C)C)NC(=O)[C@H](CCCCN)NC(=O)CNC(=O)[C@@H](NC(=O)[C@@H](N)CC(C)C)C(C)C)C(C)C)C(C)C)CSSC[C@@H](C(=O)O)NC1=O; assay = RNA-seq, item: Apof mRNA; test system = mouse traumatic brain injury, frontal cortex and hippocampus; setting = dose not given; how to read = reference: TBI plus compound vs TBI; quantity = log2 fold change; value = -3.4
Structure (SMILES) = CCCCCCCCCCCCCCCCCC[N+](C)(C)CCCCCCCCCCCC[N+](C)(C)CCCCCCCCCCCCCCCCCC.[Br-].[Br-]; tested on = influenza A virus A/PR/8/34 (H1N1); setting = concentration not given, post-treatment; quantity = HA titre reduction; value = 3 log units
Structure (SMILES) = CC(C)(C)NCCc1c[nH]c2cccc(O)c12.CC(C)(C)NCCc1c[nH]c2cccc(O)c12.O=C(O)/C=C/C(=O)O; test system = C57BL/6J mice; setting = subcutaneous, 0.03 mg/kg, 30 min; quantity = distance travelled; value = 2500 ± 343 cm

A few entries again:
Structure (SMILES) = CCCCCCCCCCCC[N+](C)(C)CCCNCCC[N+](C)(C)CCCCCCCCCCCC.[Br-].[Br-]; tested on = influenza A virus A/PR/8/34 (H1N1); setting = concentration not given, post-treatment; quantity = HA titre reduction; value = 2 ± 1 log units
Structure (SMILES) = CC(C)n1ncc2c(C(=O)NCC3(C)CNC3)cc(C3CC3)nc21; tested on = enterovirus D68; test system = recombinant US/MO/14-18947 wild type; setting = 50000 nM; quantity = plaque reduction; value = 100%
